Published values pooled from the literature.
Organism: Acinetobacter baumannii

Oc1c(Br)cc(Br)c2nc3c(C(F)(F)F)cc(C(F)(F)F)cc3nc12  MIC (1794): 75 µM
CCCCCCCCCC[N+](C)(C)CCCCCCCCOc1cc(OCCCCCCCC[N+](C)(C)CCCCCCCCCC)cc(OCCCCCCCC[N+](C)(C)CCCCCCCCCC)c1.[Br-].[Br-].[Br-]  MIC (ATCC 17978): 8 µM
CCCCCCCC(=O)N[C@@H](CCCN)C(=O)N[C@H](C(=O)N[C@@H](CCN)C(=O)N[C@H]1CCNC(=O)[C@H]([C@@H](C)O)NC(=O)[C@H](CCN)NC(=O)[C@H](CCN)NC(=O)[C@H]([C@@H](C)O)NC(=O)[C@@H](CC(C)C)NC(=O)[C@H](CCN)NC1=O)[C@@H](C)O  MIC (ATCC 19606, CAMHB; 20 h, 37 °C): > 32 µg/mL
CCCCCCn1cc[n+](CCCCCCCCCCOc2cc(OCCCCCCCCCC[n+]3ccn(CCCCCC)c3)cc(OCCCCCCCCCC[n+]3ccn(CCCCCC)c3)c2)c1.[Br-].[Br-].[Br-]  MIC (ATCC 17978): 16 µM
COc1c(NC(=O)c2ccc(NC(=O)[C@H](Cc3c[nH]nn3)NC(=O)c3ccc(NC(=O)/C(C)=C/c4ccc(O)cc4)cc3)cc2)ccc(C(=O)Nc2ccc(C(=O)O)cc2)c1O  MIC (broth microdilution; ciprofloxacin-resistant): 1 µg/mL
O=[N+]([O-])c1c(Br)c(Cl)c2cccnc2c1O  MIC (microbial growth, broth dilution; ATCC19606): 2 µg/mL
CC[C@H](C)[C@@H]1NC(=O)[C@@H](CC(C)C)NC(=O)[C@H](CCN)NC(=O)[C@@H](NC(=O)[C@@H](CO)NC(=O)[C@@H](NC(=O)[C@H](CCN)NC(=O)c2ccc(-c3ccccc3)cc2)[C@@H](C)O)CCNC(=O)[C@H](CC(C)C)NC(=O)[C@H](CCN)NC(=O)[C@H](CCN)NC1=O  MIC (broth microdilution; ATCC 19606, colistin-susceptible): 1 to 2 µg/mL
CC[C@H]1OC(=O)[C@H](C)[C@@H](OC(=O)Cc2ccc(Cl)cc2)[C@H](C)[C@@H](O[C@@H]2O[C@H](C)C[C@H](N(C)C)[C@H]2O)[C@](C)(OC)C[C@@H](C)C(=O)[C@H](C)[C@@H](O)[C@]1(C)O  MIC (microbial growth; ATCC19606): > 32 µg/mL
CC1(C)[C@H](NC(=O)/C(=N\OC2(C(=O)O)CCCC2)c2csc(N)n2)C(=O)N1OS(=O)(=O)O  MIC (agar dilution; ATCC 19606): 32 µg/mL
CCCCCCCC(=O)N[C@@H](C)C(=O)N[C@H](C(=O)N[C@@H](CCN)C(=O)N[C@H]1CCNC(=O)[C@H]([C@@H](C)O)NC(=O)[C@H](CCN)NC(=O)[C@H](CCN)NC(=O)[C@H](CC(C)C)NC(=O)[C@@H](Cc2ccccc2)NC(=O)[C@H](CCN)NC1=O)[C@@H](C)O  MIC (CLSI broth microdilution; 246-01-C.246, CAMHB; 20 h, 37 °C): 128 µg/mL
CCCCCCCC[N+](C)(C)CCCCCCOc1cc(OCCCCCC[N+](C)(C)CCCCCCCC)cc(OCCCCCC[N+](C)(C)CCCCCCCC)c1.[Br-].[Br-].[Br-]  MIC (ATCC 17978): 2 µM
CC[C@H]1OC(=O)[C@H](C)[C@@H](OC(=O)Cc2ccc3c(c2)OCO3)[C@H](C)[C@@H](O[C@@H]2O[C@H](C)C[C@H](N(C)C)[C@H]2O)[C@](C)(OC)C[C@@H](C)C(=O)[C@H](C)[C@@H](O)[C@]1(C)O  MIC (DSM 30007; added: colistin sulfate at 0.1 x MIC): 0.25 µM
C#CCNC(=O)C1(O/N=C(\C(=O)N[C@@H]2C(=O)N(OS(=O)(=O)O)C2(C)C)c2csc(N)n2)CC1  MIC (agar dilution; ATCC 19606): 32 µg/mL
CCCCCCCC(=O)N[C@@H](CCN)C(=O)N[C@H](C(=O)N[C@@H](CN)C(=O)N[C@H]1CCNC(=O)[C@H]([C@@H](C)O)NC(=O)[C@H](CCN)NC(=O)[C@H](CCN)NC(=O)[C@H]([C@@H](C)O)NC(=O)[C@@H](CC(C)C)NC(=O)[C@H](CCCN)NC1=O)[C@@H](C)O  MIC (ATCC 17978, CAMHB; 20 h, 37 °C): > 32 µg/mL
CC1(C)[C@H](NC(=O)/C(=N\OC2(C(=O)O)CC2)c2nsc(N)n2)C(=O)N1OS(=O)(=O)O  MIC (agar dilution; ATCC 19606): 16 µg/mL
CCCCCCCC(=O)N[C@@H](CCN)C(=O)N[C@H](C(=O)N[C@@H](CCN)C(=O)N[C@H]1CCNC(=O)[C@H]([C@@H](C)O)NC(=O)[C@H](CCN)NC(=O)[C@H](C)NC(=O)[C@H](CC(C)C)NC(=O)[C@@H](Cc2ccccc2)NC(=O)[C@H](CCN)NC1=O)[C@@H](C)O  MIC (broth microdilution; ATCC 19606; 20 h, 37 °C): 16 µg/mL
COc1ccc2ccc(O)c(/C=N/[C@H]3CCCC[C@H]3/N=C/c3c(O)cccc3OC)c2c1  MIC (bacterial growth, broth microdilution; carbapenem-resistant clinical isolate): > 40 µM
CCCCCCCC(=O)N[C@@H](CCN)C(=O)N[C@H](C(=O)N[C@@H](CN)C(=O)N[C@H]1CCNC(=O)[C@H]([C@@H](C)O)NC(=O)[C@H](CCN)NC(=O)[C@H](CN)NC(=O)[C@H]([C@@H](C)O)NC(=O)[C@@H](CC(C)C)NC(=O)[C@H](CCN)NC1=O)[C@@H](C)O  MIC (ATCC 19606, CAMHB; 20 h, 37 °C): 4 µg/mL
CC1(C)[C@H](NC(=O)/C(=N\OCC(=O)N2CCC(C(=O)O)C2)c2nsc(N)n2)C(=O)N1OS(=O)(=O)O (stereo partly shown)  MIC (agar dilution; ATCC 19606): > 64 µg/mL
Cc1c(CN(C)C(=O)/C=C/c2cnc3c(c2)CC(N)C(=O)N3)oc2ccccc12 (stereo not shown)  MIC (broth microdilution; KB304): 64 µg/mL
COc1cc(C(=O)Nc2ccc(C(=O)O)c(O)c2)ccc1NC(=O)c1ccc(NC(=O)[C@H](Cc2c[nH]nn2)NC(=O)c2ccc(NC(=O)/C(C)=C/c3ccc(O)cc3)cc2)cc1  MIC (broth microdilution; ciprofloxacin-resistant): 16 µg/mL
C=CCO/N=C(\C(=O)N[C@@H]1C(=O)N(OS(=O)(=O)O)C1(C)C)c1csc(N)n1  MIC (agar dilution; 16-16): 32 µg/mL
CC[C@H](C)[C@@H]1NC(=O)[C@H](CCC(=O)O)NC(=O)[C@@H]2CSSC[C@@H]3NC(=O)[C@H](Cc4ccc(O)cc4)NC(=O)[C@@H](NC(=O)[C@@H](NC(=O)[C@H](C)N)[C@@H](C)O)CSSC[C@@H](C(=O)N[C@@H](CCCNC(=N)N)C(=O)O)NC(=O)[C@H](CSSC[C@H](NC(=O)[C@H](CCCNC(=N)N)NC(=O)CNC(=O)[C@H]([C@@H](C)O)NC(=O)[C@H](CCCNC(=N)N)NC3=O)C(=O)N[C@@H](C)C(=O)N[C@@H]([C@@H](C)O)C(=O)N[C@@H](CCCNC(=N)N)C(=O)N[C@@H](CCC(=O)O)C(=O)N[C@@H](CO)C(=O)N[C@@H](CC(C)C)C(=O)N[C@@H](CO)C(=O)NCC(=O)N[C@@H](C(C)C)C(=O)N2)NC(=O)[C@H](CC(C)C)NC(=O)[C@H](CCCNC(=N)N)NC(=O)[C@H](Cc2ccc(O)cc2)NC(=O)[C@H](CC(C)C)NC(=O)[C@H](CCCNC(=N)N)NC(=O)CNC(=O)[C@H](CO)NC1=O  MIC (broth turbidity): 22.4 µg/mL
CN[C@H](CC(C)C)C(=O)N[C@H]1C(=O)N[C@@H](CC(N)=O)C(=O)N[C@H]2C(=O)N[C@H]3C(=O)N[C@H](C(=O)N[C@H](C(=O)O)c4cc(O)cc(O)c4-c4cc3ccc4O)[C@H](O)c3ccc(c(Cl)c3)Oc3cc2cc(c3O[C@@H]2O[C@H](CO)[C@@H](O)[C@H](O)[C@H]2O[C@H]2C[C@](C)(NCc3ccc(OCc4cn(CC(=O)N[C@H](C(=O)N[C@@H](CCN)C(=O)N[C@H]5CCNC(=O)[C@H]([C@@H](C)O)NC(=O)[C@H](CCN)NC(=O)[C@H](CCN)NC(=O)[C@H](CC(C)C)NC(=O)[C@@H](CC(C)C)NC(=O)[C@H](CCN)NC5=O)[C@@H](C)O)nn4)c(OC)c3)[C@H](O)[C@H](C)O2)Oc2ccc(cc2Cl)[C@H]1O  MIC (broth microdilution; BAA-747, cation-adjusted Mueller-Hinton broth; 18 to 20 h, 37 °C, 0.002% polysorbate 80): 32 µg/mL
CCOc1c(NC(=O)c2ccc(NC(=O)c3ccc(NC(=O)[C@H](Cc4c[nH]nn4)NC(=O)c4ccc(NC(=O)/C(C)=C/c5ccc(O)cc5)cc4)cc3)c(OCC)c2O)ccc(C(=O)O)c1O  MIC (broth microdilution; ciprofloxacin-resistant): 0.031 µg/mL
CCCCCCCCCCn1cc[n+](CCCCCCCCCCOc2cc(OCCCCCCCCCC[n+]3ccn(CCCCCCCCCC)c3)cc(OCCCCCCCCCC[n+]3ccn(CCCCCCCCCC)c3)c2)c1.[Br-].[Br-].[Br-]  MIC (ATCC 17978): 125 µM
CCCCCCCC(=O)N[C@@H](CN)C(=O)N[C@H](C(=O)N[C@@H](CCN)C(=O)N[C@H]1CCNC(=O)[C@H]([C@@H](C)O)NC(=O)[C@H](CCN)NC(=O)[C@H](CCN)NC(=O)[C@H]([C@@H](C)O)NC(=O)[C@@H](CC(C)C)NC(=O)[C@H](CCN)NC1=O)[C@@H](C)O  MIC (ATCC 17978, CAMHB; 20 h, 37 °C): 2 µg/mL
CN[C@H](CC(C)C)C(=O)N[C@H]1C(=O)N[C@@H](CC(N)=O)C(=O)N[C@H]2C(=O)N[C@H]3C(=O)N[C@H](C(=O)N[C@H](C(=O)NCc4cn(CCCCC(=O)N[C@H](C(=O)N[C@@H](CCN)C(=O)N[C@H]5CCNC(=O)[C@H]([C@@H](C)O)NC(=O)[C@H](CCN)NC(=O)[C@H](CCN)NC(=O)[C@H](CC(C)C)NC(=O)[C@@H](CC(C)C)NC(=O)[C@H](CCN)NC5=O)[C@@H](C)O)nn4)c4cc(O)cc(O)c4-c4cc3ccc4O)[C@H](O)c3ccc(c(Cl)c3)Oc3cc2cc(c3O[C@@H]2O[C@H](CO)[C@@H](O)[C@H](O)[C@H]2O[C@H]2C[C@](C)(N)[C@H](O)[C@H](C)O2)Oc2ccc(cc2Cl)[C@H]1O  MIC (broth microdilution; BAA-747, cation-adjusted Mueller-Hinton broth; 18 to 20 h, 37 °C, 0.002% polysorbate 80): 64 µg/mL
CCCCCCCC(=O)N[C@@H](CCN)C(=O)N[C@H](C(=O)N[C@@H](CCN)C(=O)N[C@H]1CCNC(=O)[C@H]([C@@H](C)O)NC(=O)[C@H](CCN)NC(=O)[C@H](CCN)NC(=O)[C@H](CC(C)C)NC(=O)[C@@H](Cc2ccccc2)NC(=O)[C@H](CCN)NC1=O)[C@@H](C)O  MIC (broth microdilution; ATCC 17978; 20 h, 37 °C): 0.25 µg/mL
COc1ccc2ccc(O)c(/C=N/[C@H]3CCCC[C@H]3/N=C/c3cccc(OC)c3O)c2c1  MIC (bacterial growth, broth microdilution; carbapenem-resistant clinical isolate): > 40 µM
CC[C@H]1OC(=O)[C@H](C)[C@@H](OC(=O)Cc2c(F)cccc2F)[C@H](C)[C@@H](O[C@@H]2O[C@H](C)C[C@H](N(C)C)[C@H]2O)[C@](C)(OC)C[C@@H](C)C(=O)[C@H](C)[C@@H](O)[C@]1(C)O  MIC (microbial growth; ATCC19606 DSM30007): 64 µg/mL
